Published values from different studies.
Every numbered part comes from another study and shows a few of its results, in no order. Substitutions count along the parent as printed.

Sample 1
Target: ABI1, truncated, D143A, DHFR fusion (Arabidopsis thaliana)
Technique: DHFR PCA, deep sequencing
Matrix: yeast
Notes: methotrexate growth selection, single substitutions
Together with: (+)-ABA 0.11 µM
Relative to: wild-type fitted maximum
Direction: higher = stronger binding
Starting sequence: PYL1, truncated, DHFR fusion (Arabidopsis thaliana); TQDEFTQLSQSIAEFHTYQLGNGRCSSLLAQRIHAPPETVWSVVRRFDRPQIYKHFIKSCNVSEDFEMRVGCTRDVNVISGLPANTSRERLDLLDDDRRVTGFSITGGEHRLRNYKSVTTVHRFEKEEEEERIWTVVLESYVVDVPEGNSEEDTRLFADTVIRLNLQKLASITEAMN; partner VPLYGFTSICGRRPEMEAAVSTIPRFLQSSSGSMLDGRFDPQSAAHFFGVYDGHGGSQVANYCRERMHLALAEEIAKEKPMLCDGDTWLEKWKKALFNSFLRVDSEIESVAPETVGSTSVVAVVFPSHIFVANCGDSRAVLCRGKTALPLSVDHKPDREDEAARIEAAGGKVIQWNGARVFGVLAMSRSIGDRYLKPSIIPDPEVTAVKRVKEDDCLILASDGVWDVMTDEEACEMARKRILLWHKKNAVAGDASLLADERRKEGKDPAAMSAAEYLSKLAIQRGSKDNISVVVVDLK
Change	relative binding score
L94W	5.48%
V40R	-0.85%
E127S	39.2%
G81Q	7.86%
D65S	16.8%
I33T	-0.975%
T17I	-9.05%
Q10L	11.6%
E139V	17.6%
E128N	45.1%
P36W	2.35%
K126W	7.68%
E109P	-4.61%
I162A	3.84%
V121E	-8.55%
K116T	12.1%
L94K	-8.21%
S104G	-0.0375%
G108M	4.56%

Sample 2
Target: RNA binding protein fox-1 homolog 2, RRM domain, GST-SBP tag (RBFOX2, Homo sapiens, UniProt O43251-10, residues 100-194)
Technique: RNA Bind-n-Seq
Form: RNA
Matrix: in vitro
Concentration: 365 nM
Notes: natural RNA segment, single round, ends assumed
Relative to: no-protein control
Direction: higher = stronger binding
Shared flanks, not repeated: GGGAGUUCUACAGUCCGACGAUC … UGGAAUUCUCGGGUGCCAA
Construct (chain): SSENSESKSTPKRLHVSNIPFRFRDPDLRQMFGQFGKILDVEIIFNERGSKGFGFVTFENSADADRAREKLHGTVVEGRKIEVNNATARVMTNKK
Strand	RBNS enrichment (R)
ACACCCUUCCCACCCUGCUGUGGGGCCCUGCCUUUGUGGGGAGCAGCCAGCCCUCUGCCCCUGCCCAGGGCUCCCCAACUAUAGGCCUGGGACCCCCGCCCAGCUUGGGG	0.705
CAGGAGAAUUACCCCUAUACCUGAGCCUCAACCUUCUGGGGGAAAGGGAACUAGAUAACAUACUUCUUACUUGUCUGUACAGUACCUUGUUGCAGAUGGGUGAUAUAUAA	0.398
UCCAGGUAGGACAGCUGCUCCCCAAGCCUCCUGAGGACACAGGAAGAGACGGAAGGAGCACCUUGACAGACUUGUGUGAGUCUUCUCGAAGGAGGGUUGACUCAGAACCC	0.62
CCGGCCUUCUCUUCCGACAGGAUGCACACUUGUGGACCACAACCCUAAGGUCUUGUGCCAGCAUCUACCCACACCUGGUUCUGUUCACUGUGGUCUGCCCACACCUGUCU	0.919
GGAGCUGCCCCAGCUGAAGGGGGCUGUGUAUGUGUCUGAGGAGCUUAGUAAGACUCUGGUUCACACCGUGAGUGUCGCGGUCAUUGAUGGGACCAGGGCAGUCACCAGUG	0.568
CUCUGUCCCCACUGCAGGUGCUGCUUCUCCUCAGGUGUGGCCUACCUAGGCUCCUGGACCCACACCCUCCUCAGGCUGACUUUACUGCCUUGGGAGAAGUCUACAUUUCC	0.319
GCCCGUCUGCCUCCCCGGCACGGCACGGCUCCGCACGCAACCUAAGCGUGCCACCACGGUCUCUUAUUUAUGGUGUGAUCACCCUGGAGGGCGCCCCCGCCCUGCUGGGG	0.758
UCUGACCCGAGGAAGCACCCUCCUGACGCCGCCUUCCUCCGGUUAUUGAAAGGACGCCUCAGAAAUGCUUUGUUUUCUUUUACGAUGUAUUCAGAAGCCUUUACUGAUUA	0.438

Sample 3
Target: Interferon regulatory factor 7, full length, phosphomimetic (IRF7, Homo sapiens, UniProt Q92985, residues 1-503, S101K/S471D/S472D/S475D/S476D/S477D/S483D/S484D/S487D)
Technique: protein-binding microarray
Form: double-stranded DNA, one strand shown
Matrix: in vitro
Concentration: 250 nM
Notes: 60-bp whole probe
Together with: salmon DNA 0.4 mg/ml
Relative to: random background probes
Direction: higher = stronger binding
Shared flanks, not repeated: GCCTAGCAC … GTCTTGATTCGCTTGACGCTGCTG
Residues (chain): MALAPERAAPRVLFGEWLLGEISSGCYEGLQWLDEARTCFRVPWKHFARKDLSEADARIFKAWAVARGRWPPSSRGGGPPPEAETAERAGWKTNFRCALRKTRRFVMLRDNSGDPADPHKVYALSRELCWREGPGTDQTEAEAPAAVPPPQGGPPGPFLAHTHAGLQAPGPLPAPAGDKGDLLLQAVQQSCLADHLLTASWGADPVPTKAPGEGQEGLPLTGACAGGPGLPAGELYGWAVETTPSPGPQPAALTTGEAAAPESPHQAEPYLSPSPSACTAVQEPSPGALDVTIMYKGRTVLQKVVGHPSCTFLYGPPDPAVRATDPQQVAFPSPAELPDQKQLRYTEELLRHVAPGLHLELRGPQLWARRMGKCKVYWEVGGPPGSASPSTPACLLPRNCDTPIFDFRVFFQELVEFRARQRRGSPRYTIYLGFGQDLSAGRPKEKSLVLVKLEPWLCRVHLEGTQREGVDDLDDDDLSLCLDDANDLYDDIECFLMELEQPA
Strand	log fluorescence [z-score]
TTAGGTCTCCTACTGTTTTAGTGCTAG	0.0644
TCACATCTGTCATGTTTGACTGTGCTA	0.0231
TAGTATTTTTTTCCAGAGGGGTGCTAG	0.403
TTAGAACTGAGACTGGACTAGTGCTAG	-0.206
TTTTTTTTTTTTTTGTATTTGTGCTAG	0.79
GACGATCTCAGACTGGGGACGTGCTAG	-0.39
TTAGGTATCGACTTTAGGTTAGTGCTA	1.24
GACGGTATCGCGTTTCGGGACGTGCTA	0.763
GACGGTCTGCTTTTCCTGACGTGCTAG	0.00722
TTCGAACTGGGGTATCGATTAGTGCTA	0.136
TCAGATCTGCCGTCCCACTCAGTGCTA	-0.0746
GACGGTTTCGAGTTTCGGGACGTGCTA	11.5
GACGGACTGGACACTGGGGAAGTGCTA	-0.751

Sample 4
Target: UBE2C UBC core domain (UniProt O00762)
UniProt O00762, sequence (whole entry, looked up): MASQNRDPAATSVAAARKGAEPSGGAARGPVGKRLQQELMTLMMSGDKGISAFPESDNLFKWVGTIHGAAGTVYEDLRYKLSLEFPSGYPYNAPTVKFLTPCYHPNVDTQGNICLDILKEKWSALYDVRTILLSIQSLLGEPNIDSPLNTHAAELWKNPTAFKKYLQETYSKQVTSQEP
Technique: yeast two-hybrid
Matrix: yeast
Notes: mostly zero background
Relative to: not given
Direction: higher = stronger interaction
B1: MKRN2 RING domain (UniProt Q9H000); chain FAFQASQDKVCSICMEVILEKASASERRFGILSNCNHTYCLSCIRQWRCAKQFENPIIKSCPECRVISEFVIPSV
B2: DEF8 RING domain (UniProt Q6ZN54); chain AGRLGCSLTEIHTLFAKHIKLDCERCQAKGFVCELCREGDVLFPFDSHTSVCADCSAVFHRDCYYDNSTTCPKCARLSLRK
B3: RNF122 RING domain (UniProt Q9H9V4); chain AKKLQLYGQTCAVCLEDFKGKDELGVLPCQHAFHRKCLVKWLEVRCVCPMCNKPIASPSEAT
B4: RNF183 RING domain (UniProt Q96D59); chain EQQGRELEAECPVCWNPFNNTFHTPKMLDCCHSFCVECLAHLSLVTPARRRLLCPLCRQPTVLASGQP
B5: TRIM22 RING domain (UniProt Q8IYM9); chain VKVDIEKEVTCPICLELLTEPLSLDCGHSFCQACITAKIKESVIISRGESSCPVCQTRFQPGNLRP
B6: TRIM60 RING domain (UniProt Q495X7); chain ALVNLQEESSCPICLEYLKDPVTINCGHNFCRSCLSVSWKDLDDTFPCPVCRFCFPYKSFRR
B7: RNF2 RING domain (UniProt Q99496); chain SPRSLHSELMCPICLDMLKNTMTTKECLHRFCADCIITALRSGNKECPTCRKKLVSKRSLR
Molecule	lacZ reporter activity
B1 (MKRN2 RING domain)	0
AEADPLGRFTCPVCLEVYEKPVQVPCGHVFCSACLQECLKPKKPVCGVCRSALAPGVRAV (RNF114 RING domain (UniProt Q9Y508))	0
B2 (DEF8 RING domain)	0
B3 (RNF122 RING domain)	0
B4 (RNF183 RING domain)	0
PEELAVNNDDCAICWDSMQAARKLPCGHLFHNSCLRSWLEQDTSCPTCRMSLNIADNNR (AMFR RING domain (UniProt Q9UKV5))	0
B5 (TRIM22 RING domain)	0
B6 (TRIM60 RING domain)	0
YCEMGSTFQLCKICAENDKDVKIEPCGHLMCTSCLTAWQESDGQGCPFCRCEIKGTEPII (CBLB RING domain (UniProt Q13191))	0
YPEEVDDDLICHICLQALLDPLDTPCGHTYCTLCLTNFLVEKDFCPMDRKPLVLQHCKK (LNX1 RING domain (UniProt Q8TBB1))	0
B7 (RNF2 RING domain)	0

Sample 5
Target: RING finger protein unkempt homolog, zinc fingers 1-6, GST-SBP tag (UNK, Homo sapiens, UniProt Q9C0B0, residues 30-357)
UniProt Q9C0B0, sequence (30-357, looked up): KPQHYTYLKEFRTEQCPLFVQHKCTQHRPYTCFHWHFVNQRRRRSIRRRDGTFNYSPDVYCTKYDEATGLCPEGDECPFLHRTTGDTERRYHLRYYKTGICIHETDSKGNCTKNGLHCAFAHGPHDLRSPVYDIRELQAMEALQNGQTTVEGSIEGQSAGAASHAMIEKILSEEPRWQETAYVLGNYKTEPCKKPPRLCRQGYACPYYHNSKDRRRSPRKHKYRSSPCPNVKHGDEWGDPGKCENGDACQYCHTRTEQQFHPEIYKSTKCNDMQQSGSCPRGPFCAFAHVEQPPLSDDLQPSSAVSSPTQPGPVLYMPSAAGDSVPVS
Technique: RNA Bind-n-Seq
Form: RNA
Matrix: in vitro
Concentration: not given
Notes: RNA with constant flanks, ends assumed
Relative to: input RNA pool
Direction: higher = stronger binding
Shared flanks, not repeated: GGGAGUUCUACAGUCCGACGAUC … CAACAGAGGAUUGAGCAUCA
Strand	bound/input enrichment
GGAUCUUGUGACUGGCUUUGCUUGAUUGGUCAUUGGUAUCUCAACAAGCAUGGAGAUGAGAUCCGAAGUUUUGACAUCAACAAGUAUCAAGCAGAAAAAACCCUGGCCCAGAGUAUCCUG	0.111 ratio
AUAGAAGACAGGGAUAAUACCUUUAUCUCUGGCCACUCAAAAAUGCAGUGCCAGGAGUGCUAAACCCCGAGGCCAAUACUGAUGACCUGGAAGGUGAUCCAUAUGAUUGUCACCACAAAG	0.16 ratio
UAUUUGUGUAAAGUAUGCAUGCAGUCUUGUACUGUGACCUAAGAACAAAACUGUAACUGCAUCCGAAACCAUGAAAAAAUUAGAUAUUGUUUUGUGACUUUUAGACAGUGGUAAAUAUAG	4.42 ratio
ACGUCAGAUGACCUGACUGUUGUAGAUGCAGCUUCACUAAGACGACAGAUAAUCAAACUAAACCGACGUCUACAACUUCUGGAAGAGGAGAACAAAGAACGUGCUAAAAGAGAAAUGGUC	0.234 ratio
ACCAGAUUCUGCCUCAUCUGUAACUAUGUCAGUCGAAUAAUUGAACCCCUCACUUCCCGAUGUUCAAAAUUCCGCUUCAAGCCUCUGUCAGAUAAGAUUCAACAGGAGCGAUUACUGGAU	0.5 ratio
AUUUCCCCAAAAGUUACGAGUUUAUUGGUGGUCCCUGGGAGCUCAGAUGUAAAAGACAAAGUCCGCUCGGAUCUCCCACAGAUAGGGCCACCCUUGACCUCUACACCCCAACUACAGGCU	0.158 ratio
AUUUCACAAAGCUCCCGAAUCUGGCUUUGUCCUCACUGUCGGAGGUCAGAGAAGCCUCCAUCCGAGAAAAUUCUGCCUCUGCUGGCCUCCCUACAGCGUAUACGAGUUCGUCUUCCUGAA	0.175 ratio

Some of these lines once more (sample 3):
Strand	log fluorescence [z-score]
GACGGTATCGCGTTTCGGGACGTGCTA	0.763
GACGGTCTGCTTTTCCTGACGTGCTAG	0.00722
TTCGAACTGGGGTATCGATTAGTGCTA	0.136
GACGGTTTCGAGTTTCGGGACGTGCTA	11.5
GACGGACTGGACACTGGGGAAGTGCTA	-0.751
TAGTATTTTTTTCCAGAGGGGTGCTAG	0.403
TTTTTTTTTTTTTTGTATTTGTGCTAG	0.79
TTAGGTATCGACTTTAGGTTAGTGCTA	1.24
